{"data": "Assay results from different studies", "UCHL1": "Ubiquitin carboxyl-terminal hydrolase isozyme L1 (UCHL1, Homo sapiens, UniProt P09936)", "note": "Each line is one published result; not all experiments were run side by side. ± gives the spread as reported.", "UniProt P09936, sequence (whole entry, looked up)": "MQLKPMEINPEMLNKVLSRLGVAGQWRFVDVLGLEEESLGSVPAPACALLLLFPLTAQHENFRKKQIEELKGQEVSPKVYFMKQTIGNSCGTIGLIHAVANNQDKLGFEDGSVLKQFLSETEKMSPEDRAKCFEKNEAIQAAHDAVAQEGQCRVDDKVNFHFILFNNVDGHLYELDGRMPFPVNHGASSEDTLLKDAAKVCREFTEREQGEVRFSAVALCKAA"}
{"SMILES": "COc1cccc(-c2n[nH]c(SCc3ccccn3)n2)c1OC", "test system": "Sprague-Dawley rats, both sexes", "setting": "oral dietary, 30 mg/kg/day, day 90, 3 h", "measurement": "plasma concentration", "result": "2220 ng/mL"}
{"SMILES": "Cc1ccc2c(c1)nc(/C=C/c1cccc3cccnc13)n2-c1cccc(OCCCN2CCN(C)CC2)c1", "test system": "male Sprague-Dawley rat", "setting": "oral, 10 mg/kg, 8 h", "measurement": "plasma concentration", "result": "452 ± 108 nM"}
{"SMILES": "Cc1cccc(Cn2cc(CO)c3cnccc32)c1", "test system": "rat, plasma", "setting": "oral, 100 mg/kg/day, 24 h after first dose", "measurement": "plasma concentration", "result": "< 2 ng/mL"}
{"SMILES": "CC(C)c1nc(N(C)S(C)(=O)=O)nc(-c2ccc(F)cc2)c1/C=C/[C@@H](O)C[C@@H](O)CC(=O)O", "test system": "Wistar albino rat, both sexes, plasma", "setting": "oral, 20 mg/kg, 1 h", "measurement": "plasma concentration", "result": "578 ng/mL"}
{"SMILES": "CC(C)(O)c1coc(S(=O)(=O)NC(=O)Nc2c3c(cc4c2CCC4)CCC3)c1", "test system": "Sprague-Dawley rat, male, plasma", "setting": "oral, 2 mg/kg, 2 h", "measurement": "plasma concentration", "result": "165 ng/mL"}
{"SMILES": "CCN(Cc1ccc(F)cc1)c1ccc(CO)c(Cl)c1", "test system": "rat, plasma", "setting": "oral, 100 mg/kg/day, 24 h after first dose", "measurement": "plasma concentration", "result": "< 2 ng/mL"}
{"SMILES": "CCOCc1nc(O)c(-c2nnc(Cc3ccc(Cl)cn3)o2)c(O)c1-c1c(OC)cccc1OC", "test system": "rat, anaesthetised, cannulated, plasma", "setting": "intravenous infusion, 10 µg/kg/min, 20 min after infusion stop, washout", "measurement": "plasma concentration", "result": "1000 nM"}
{"SMILES": "Cc1ccc2c(c1)C(=O)[C@]1(O)CCN(c3ccc4nc(C)ccc4c3)C1=N2", "test system": "rat, plasma", "setting": "subcutaneous, 90 mg/kg, 1 h", "measurement": "plasma concentration", "result": "4400 ± 300 nM"}
{"SMILES": "CC(=O)N1c2ccc(C(=O)CCl)cc2CC1C (stereo not drawn)", "tested on": "UCHL1", "test": "covalent, intact protein LC-MS", "setting": "12.5 µM", "measurement": "labelling", "result": "19%"}
{"SMILES": "COc1cc(F)c([C@@H]2CNC(=O)[C@H]2NC(=O)Nc2ccccc2)c(F)c1", "test system": "Sprague-Dawley rats, LPS challenge, plasma", "setting": "oral, 0.1 mg/kg, 3 h post dose", "measurement": "plasma concentration", "result": "15 ± 6 nM"}
{"SMILES": "Cc1ccc(S(=O)(=O)n2cc3c4c2C(=O)C(NCc2ccc(Cl)cc2)=CC4=NCC3)cc1", "test system": "Sprague-Dawley rat, plasma", "setting": "intravenous, 5 mg/kg, 4 h", "measurement": "plasma concentration", "result": "78.1 ± 60.8 ng/mL"}
{"SMILES": "N#CC(=Cc1ccc(F)c(F)c1)C(=O)NC1CCCCC1", "tested on": "UCHL1", "test": "covalent, intact protein LC-MS", "setting": "12.5 µM", "measurement": "labelling", "result": "9.89%"}
{"note": "A few entries again:"}
{"SMILES": "Cc1cccc(Cn2cc(CO)c3cnccc32)c1", "test system": "rat, plasma", "setting": "oral, 100 mg/kg/day, 24 h after first dose", "measurement": "plasma concentration", "result": "< 2 ng/mL"}
